Results from different studies.
Numbered parts are unrelated; each lists some results of a single study.

Series 1 — method: RNA Bind-n-Seq; molecule type: RNA; sample: in vitro; tested at: not given; setting: RNA with constant flanks, ends assumed; reference: input RNA pool; reading: higher = stronger binding
Target: RING finger protein unkempt homolog, zinc fingers 1-6, GST-SBP tag (UNK, Homo sapiens, UniProt Q9C0B0, residues 30-357)
All sequences stand within: GGGAGUUCUACAGUCCGACGAUC … CAACAGAGGAUUGAGCAUCA
Target sequence (chain): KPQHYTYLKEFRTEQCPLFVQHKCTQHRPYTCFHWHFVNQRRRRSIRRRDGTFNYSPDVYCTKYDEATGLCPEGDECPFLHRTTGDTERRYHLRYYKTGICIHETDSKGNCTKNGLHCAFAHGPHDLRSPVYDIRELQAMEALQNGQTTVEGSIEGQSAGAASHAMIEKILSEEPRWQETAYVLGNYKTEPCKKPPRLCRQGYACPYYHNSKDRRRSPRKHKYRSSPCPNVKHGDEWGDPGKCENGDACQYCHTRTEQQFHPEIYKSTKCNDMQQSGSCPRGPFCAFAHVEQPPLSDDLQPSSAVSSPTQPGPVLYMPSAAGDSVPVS
Sequence	bound/input enrichment [ratio]
CAAUAUAUAUCUCCAUUUCAUGAUAUUCCAAUUUAUGCAGAUAAGGAUGUGUUUCACAUGGCCGUUGAAGUACCACGCUGGUCUAAUGCAAAAAUGGAGAUUGCUACAAAGGACCCUUUA	0.144
UCGGGUGAGGCCUGGCCUGCUGUUCUAAGUAGUCCACUGGCAUUGCCUUCCAAGCCACUUCCGGUCCUUUUGUUUUGUUUUGUUUUUGUUUUUAAAUCAGUGCUCUUACUUCCUGUACAU	0.951
UUCCCUGGAGAGUUCAUGAAGAGCUGGAAUGACUGCCUCAACAAAGAAGGCUUUGACAAAACCGAUAUCAGUGCAGUUGUGGCAUAUACCAUCGCUGUAAAGGAGGAUGGGGAGCUCAAC	0.309
AACAAGCCCUGCCCAGUGUGCAGACAGCCAAUCCAAAUGAUUGUGCUAACUUACUUCAACCCGCUGACCUGCUCACAAAAAUAGAAUUUUAUAUUUCUAACUAUAUGACCCCCAAAUUAG	30.6
AUUAAAACAACAAACGAAACCUAGUGAAGCAUCUUUUUAAAAGGCUGCCAGCUUAAUGAAUUCCGAUGUACUUUAAGAGAGAAAGACUGGUUAUUUCUCCUUUGUGUAAGUGAUAAACAA	0.0996
GUUUUUGGCUGCAAUUGCAUGAAAUCCCAAUGGUGUAGACCAGUGGCGAUGGAUCCCGGAGUUUACCAACUGAGACAUUUUUCAAUUUCUUUCUUGUCAUCCUUGCUGGGGACUGAAAAC	0.244
UUGUAGUCCUAAAAAGAUUUUUUUUUUUUAAAAUAAAGUCCAUCCUUGCAUUUAGGUUUUACCGAUCAGUCUUUUUAUUCCCACCCCUCCCCCAGUCGCAUUGAUCCCUAAUGGUGUGCU	2.94

Series 2 — method: protein-binding microarray; molecule type: double-stranded DNA, one strand shown; sample: in vitro; tested at: 2540 nM top; setting: 60-bp whole probe; together with: salmon DNA 0.4 mg/ml; reference: random background probes; reading: higher = stronger binding; all sequences stand within: GCCTAGCAC … GTCTTGATTCGCTTGACGCTGCTG
Target: Interferon regulatory factor 3, full length, phosphomimetic (IRF3, Homo sapiens, UniProt Q14653, residues 1-427, S386D/S396D/S398D/S402D/T404D/S405D)
Residues (chain): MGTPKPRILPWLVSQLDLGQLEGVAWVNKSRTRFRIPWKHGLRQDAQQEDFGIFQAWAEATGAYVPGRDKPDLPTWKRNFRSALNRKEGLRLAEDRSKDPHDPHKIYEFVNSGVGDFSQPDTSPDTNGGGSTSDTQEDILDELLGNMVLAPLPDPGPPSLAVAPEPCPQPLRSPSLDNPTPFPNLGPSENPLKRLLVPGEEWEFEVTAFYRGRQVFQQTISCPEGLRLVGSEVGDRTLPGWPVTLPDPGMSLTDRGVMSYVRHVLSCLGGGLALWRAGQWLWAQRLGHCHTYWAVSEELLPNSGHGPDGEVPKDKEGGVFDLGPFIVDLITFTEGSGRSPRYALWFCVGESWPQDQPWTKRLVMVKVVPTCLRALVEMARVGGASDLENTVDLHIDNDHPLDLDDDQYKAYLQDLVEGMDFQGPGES
Sequence	fitted relative affinity [z-score]
TTAGATCTCAGCCTGGATTAGTGCTAG	-0.332
GACGAACTGGGTATCGAGACGTGCTAG	-0.0438
GACGGACTTCTTTTCCTGACGTGCTAG	0.401
TCTCTTCTGCTTCCTCAGGACGTGCTA	0.807
TCATATATTATATATACAACTGTGCTA	0.714
TCACTCCTCCAGGTTCTCACTGTGCTA	0.0279
ACCCATTGAGATTTTCATTATGTGCTA	0.703
ATTGAGAATTCCACTCCGCTGTGCTAG	-0.0688
TCATCTTTTCATTTTCTACTGTGCTAG	2.41
TTAGGTTTCGGGTTTCGGGTAGTGCTA	5.89
TTAGGTTTCGTCACTGGGTTAGTGCTA	1.79
TTTGGTATCGGGACTGGGTTAGTGCTA	1.73
TTAGACTTCAGTTCCGATTAGTGCTAG	1.12
TAAGGTTTCGGGTATCGGTTAGTGCTA	4.56
GACGATTTCGGGTACCGAGACGTGCTA	1.54
TTAGGCATCCTTTTCCTTTAGTGCTAG	2.42
TCATCATTCCTGATCTCACTGTGCTAG	0.756
TTTTTTTTTTTTTCTGATCCGTGCTAG	1.95
GTTCTTTTCAGTCCCCTCTTGTGCTAG	2.13
GACGAGATCGGGTTTCGAGACGTGCTA	1.11

Series 3 — method: protein binding microarray; molecule type: double-stranded DNA, one strand shown; sample: in vitro; tested at: not given; reference: not given; reading: higher = stronger binding
Target: Histone acetyltransferase KAT6A, winged helix 2, GST fusion (KAT6A, Homo sapiens, UniProt Q92794, residues 85-181)
Setting: 8-mer, flanks averaged, mean of 2 arrays, mostly near background
Target sequence (chain): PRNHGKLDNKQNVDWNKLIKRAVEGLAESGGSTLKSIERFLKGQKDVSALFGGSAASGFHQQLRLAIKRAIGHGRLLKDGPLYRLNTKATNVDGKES
Sequence	E-score
CTTCCTTA	-0.164
CCAGCAGG	0.0768
ATGAACGC	0.19
CTGTAAAA	-0.0245
GCATAAGA	-0.0741
ACCAGGCC	0.165
CACCTCGA	0.0343
AGGGTATA	-0.00645
CAGGAAAG	-0.0897
GCCGGCTA	0.0851
CTGCTGCA	0.109
ACCTGGGA	-0.146
GGAGTCCC	-0.0961
CTGGTCAC	0.0276
CGGAAACA	-0.101
CAAAGAGC	0.0158
ACATGTCT	-0.0924
ACTGAGTC	-0.0351
CTACAATC	0.0152
GTCCTTTA	-0.0592
CTGCTCAA	-0.0362
ATGCACAG	-0.042
CGTCCAGA	0.0325
ATTAGCAG	0.0691
CTAGCGTC	-0.101

Series 4 — method: RNA Bind-n-Seq; molecule type: RNA; sample: in vitro; tested at: 365 nM; reference: no-protein control; reading: higher = stronger binding
Target: RNA binding protein fox-1 homolog 2, RRM domain, GST-SBP tag (RBFOX2, Homo sapiens, UniProt O43251-10, residues 100-194)
Setting: natural RNA segment, single round, ends assumed
All sequences stand within: GGGAGUUCUACAGUCCGACGAUC … UGGAAUUCUCGGGUGCCAA
Residues (chain): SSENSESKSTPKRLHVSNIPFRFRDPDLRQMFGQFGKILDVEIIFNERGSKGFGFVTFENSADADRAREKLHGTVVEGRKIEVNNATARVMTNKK
Sequence	RBNS enrichment (R)
GAGGGUCAUGGGUUUGCUUUUGCUGUUGUGACGCCUGUUCCCGUCUCUAUGUUAAAAUGCCAAAAAUGACCCAGUCUGUCGCUUUCCUCCGCCCCAGCGCUUCACAGCCG	0.945
UCCUUGGAAGGAUCCGCUGAAGGUCAGCGUAUAGGUGAUGUACAGUUCCUAAUAUCACAUCAGUCUCAGAGUGUUCACAGGAAGCAGCAAGGGCACUCGUGGAGUAUGUG	2.14
AGAACCUGUGCCAACUGUGGAGUGGGGAGGUUGGGCCUGGACCCUCAACCCCUGCAACCUUCCCUAGCCCCCUCAAUAGAUGAGCAGGUCAGGCUGUGGCCCUUACCUCA	0.654
UCUCUUACAAAUCUGUGCAUCAGGAAAAUAUGCAUACUUUCAAAUAGAACAGAGGUAUUUGCAACCUGAAAAACCACUUUUAAUAAGAGCUGUAUGAUAAAUUGUUGAAA	2.46
UGCAUUCCAAGGAAAUGGCAUAUGGAUUAACUGUAAGAAAUGAAAUAAGUAAUUUAUUGUAAGACAACAUCAAGCCAUGGAAACUUGGCAGAAGAUUCAAAGCAGCUUAA	0.508
UAGAAUGAAGUAUCUUAGUUUAAAGGGUAAGAGAGAAGUUGUUUCUGGUUUUUCCUUGCCCCUGUGUGAAAAUAGGUCCUAAAUGACUGACUUCACUGCAUUAGACCCUA	0.606
GAUCCCACACAGGCUGGCGGGGGCCGGCCCCGAGGCCGCGUGCGUGAGAACCGCGCCGGUGUCCCCAGAGACCAGGCUGUGUCCCUCUUCUCUUCCCUGCGCCUGUGAUG	0.493
CACAGACGUGGGCCUGGGCCUUCUCAGCAGCCACCUUCUAGCUGGGGGCUAGUAGCUGACCUGCUGCCUCCUGCCCUACUUGUGUGGACAGGAGGCCCACGGGCACUGGG	0.324
GUGUGUAUGAAAUCUGUGUUUCCAAUCUCUCUCUCCCAGAUCGGUGACAGUCACUAGCUUGUCCUGAGAAGAUAUUUAAUUUUGCUAACACUCAGCUCUGCCCUCCCUUG	0.569
UUGAUUGGUGUUUCUGAGCAUUCAGACUCCGCACCCUCAUUUCUAAUAAAUGCAACAUUGGACCCGCUUCCCCUUUCUUCAGCGCCUAGGCAGCUGGCCUUGGCUCUACA	0.661
GUGAUUUCAUAGAUAAUAUAUUUAAUAUGACAGAUUAUGUUUCAACUCUGUAGAUGUUUAACGUCAUAGACAGUUGGCCCUCUGUAUCCGUGAGCUCUAUAUCUGUGAAU	0.422
UUGGAUACAUAAGAAAUGAGAAUUCCUGGUUCAUGGGCCAACCUAGGACUCUGGAGUAUGCAGACUUGGCCAUUCGUCCAUUGUGGCCUGCGGGUCGCACCCCAGGCAUA	0.739

Repeated from above (series 2):
Sequence	fitted relative affinity [z-score]
TAAGGTTTCGGGTATCGGTTAGTGCTA	4.56
TTTGGTATCGGGACTGGGTTAGTGCTA	1.73
TCTCTTCTGCTTCCTCAGGACGTGCTA	0.807
TTTTTTTTTTTTTCTGATCCGTGCTAG	1.95
TTAGGCATCCTTTTCCTTTAGTGCTAG	2.42
GTTCTTTTCAGTCCCCTCTTGTGCTAG	2.13
